# Measurements gathered from unrelated publications.
# Compare with care: the assays were run in different laboratories. ± gives the spread as reported.
# Cytochrome P450 2A13: Cytochrome P450 2A13 (Homo sapiens, UniProt Q16696)
# Chain of UniProt Q16696 (whole entry, looked up): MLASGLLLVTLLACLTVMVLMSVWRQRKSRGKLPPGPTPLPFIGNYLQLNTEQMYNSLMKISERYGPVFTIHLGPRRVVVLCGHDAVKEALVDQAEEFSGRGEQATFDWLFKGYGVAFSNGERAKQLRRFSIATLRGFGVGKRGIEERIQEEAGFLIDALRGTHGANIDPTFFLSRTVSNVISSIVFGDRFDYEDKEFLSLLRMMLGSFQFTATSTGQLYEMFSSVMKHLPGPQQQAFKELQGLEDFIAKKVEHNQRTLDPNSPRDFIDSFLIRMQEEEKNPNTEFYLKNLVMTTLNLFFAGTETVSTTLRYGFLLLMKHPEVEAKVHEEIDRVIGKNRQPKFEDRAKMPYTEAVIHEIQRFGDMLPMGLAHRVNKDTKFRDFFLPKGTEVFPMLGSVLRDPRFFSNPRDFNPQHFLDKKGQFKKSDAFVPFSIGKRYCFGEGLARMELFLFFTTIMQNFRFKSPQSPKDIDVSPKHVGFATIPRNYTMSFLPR
# gag-pol reverse transcriptase: Gag-Pol polyprotein, reverse transcriptase (gag-pol, Human immunodeficiency virus 1, UniProt P03366)
# Uncharacterized protein: Uncharacterized protein (Equus caballus, UniProt Q38RB9)
# Chain of UniProt Q00987 (whole entry, looked up): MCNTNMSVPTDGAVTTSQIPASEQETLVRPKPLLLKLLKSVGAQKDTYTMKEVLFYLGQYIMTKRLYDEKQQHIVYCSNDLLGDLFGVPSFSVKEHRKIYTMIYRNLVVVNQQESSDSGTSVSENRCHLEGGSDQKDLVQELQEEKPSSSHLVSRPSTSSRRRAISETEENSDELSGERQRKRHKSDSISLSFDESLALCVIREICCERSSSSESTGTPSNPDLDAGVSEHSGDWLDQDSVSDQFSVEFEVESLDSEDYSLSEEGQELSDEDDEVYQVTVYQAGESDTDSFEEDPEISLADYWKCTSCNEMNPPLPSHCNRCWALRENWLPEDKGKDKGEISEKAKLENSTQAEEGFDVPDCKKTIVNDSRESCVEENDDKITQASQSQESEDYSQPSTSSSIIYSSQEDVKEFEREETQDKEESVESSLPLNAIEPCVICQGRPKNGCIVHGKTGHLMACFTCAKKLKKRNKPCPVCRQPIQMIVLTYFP
# Chain of UniProt P14555 (whole entry, looked up): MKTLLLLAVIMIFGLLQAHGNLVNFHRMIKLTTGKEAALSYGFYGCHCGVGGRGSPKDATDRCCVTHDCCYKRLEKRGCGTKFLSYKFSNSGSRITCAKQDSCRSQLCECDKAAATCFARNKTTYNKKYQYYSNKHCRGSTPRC
# Chain of UniProt Q15391 (whole entry, looked up): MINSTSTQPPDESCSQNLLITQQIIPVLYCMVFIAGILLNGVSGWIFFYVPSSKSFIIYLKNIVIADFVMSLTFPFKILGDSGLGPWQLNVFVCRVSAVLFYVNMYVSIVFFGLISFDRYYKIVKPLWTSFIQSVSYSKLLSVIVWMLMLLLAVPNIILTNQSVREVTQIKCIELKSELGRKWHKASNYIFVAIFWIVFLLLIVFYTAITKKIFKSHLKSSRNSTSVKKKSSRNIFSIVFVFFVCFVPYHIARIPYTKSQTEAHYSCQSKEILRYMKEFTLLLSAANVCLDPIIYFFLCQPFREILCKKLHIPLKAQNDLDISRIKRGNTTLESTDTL
# Chain of UniProt Q9NXA8 (whole entry, looked up): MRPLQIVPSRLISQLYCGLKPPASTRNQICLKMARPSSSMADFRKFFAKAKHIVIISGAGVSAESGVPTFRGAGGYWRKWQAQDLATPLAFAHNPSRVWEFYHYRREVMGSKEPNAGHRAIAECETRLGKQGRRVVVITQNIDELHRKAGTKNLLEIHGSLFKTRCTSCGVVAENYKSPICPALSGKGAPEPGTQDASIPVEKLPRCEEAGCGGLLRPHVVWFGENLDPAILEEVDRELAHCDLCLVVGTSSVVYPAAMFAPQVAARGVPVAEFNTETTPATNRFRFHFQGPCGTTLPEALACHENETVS
# Chain of UniProt Q14994 (whole entry, looked up): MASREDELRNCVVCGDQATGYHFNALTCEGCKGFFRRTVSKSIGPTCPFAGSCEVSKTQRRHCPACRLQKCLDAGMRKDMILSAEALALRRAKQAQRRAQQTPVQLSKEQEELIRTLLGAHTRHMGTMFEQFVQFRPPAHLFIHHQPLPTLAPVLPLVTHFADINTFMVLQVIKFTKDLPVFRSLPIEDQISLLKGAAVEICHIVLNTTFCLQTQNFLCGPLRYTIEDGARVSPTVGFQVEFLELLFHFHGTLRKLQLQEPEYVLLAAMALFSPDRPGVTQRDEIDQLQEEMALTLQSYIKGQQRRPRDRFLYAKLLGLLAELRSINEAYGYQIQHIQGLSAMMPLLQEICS
# Chain of UniProt Q8BHN3 (whole entry, looked up): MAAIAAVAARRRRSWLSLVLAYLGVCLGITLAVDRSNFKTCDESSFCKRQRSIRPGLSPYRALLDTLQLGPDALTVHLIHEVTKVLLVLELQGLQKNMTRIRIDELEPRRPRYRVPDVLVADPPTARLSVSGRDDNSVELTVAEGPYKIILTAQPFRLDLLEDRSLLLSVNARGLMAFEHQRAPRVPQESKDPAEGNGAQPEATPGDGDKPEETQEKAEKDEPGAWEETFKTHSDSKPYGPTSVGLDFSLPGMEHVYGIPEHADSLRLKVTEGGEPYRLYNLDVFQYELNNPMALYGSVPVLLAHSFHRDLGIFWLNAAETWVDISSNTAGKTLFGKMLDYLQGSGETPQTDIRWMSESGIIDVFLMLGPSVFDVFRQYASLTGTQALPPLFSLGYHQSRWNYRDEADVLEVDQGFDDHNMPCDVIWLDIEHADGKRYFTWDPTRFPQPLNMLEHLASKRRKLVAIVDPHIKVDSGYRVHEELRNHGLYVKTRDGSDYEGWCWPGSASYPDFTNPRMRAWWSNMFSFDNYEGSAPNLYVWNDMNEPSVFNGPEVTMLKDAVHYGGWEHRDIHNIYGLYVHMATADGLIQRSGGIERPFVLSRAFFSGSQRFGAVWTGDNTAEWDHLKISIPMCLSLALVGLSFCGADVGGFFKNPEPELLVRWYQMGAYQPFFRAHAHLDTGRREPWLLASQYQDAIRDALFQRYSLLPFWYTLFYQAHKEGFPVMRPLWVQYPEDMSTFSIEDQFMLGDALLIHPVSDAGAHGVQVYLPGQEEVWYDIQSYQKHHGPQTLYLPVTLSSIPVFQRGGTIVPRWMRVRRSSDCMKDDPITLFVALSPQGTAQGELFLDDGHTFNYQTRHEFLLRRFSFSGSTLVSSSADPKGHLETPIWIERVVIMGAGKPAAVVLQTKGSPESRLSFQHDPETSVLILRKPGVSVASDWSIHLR
SMILES,target,test,test system,setting,IC50
c1ccc(-c2ccccc2)cc1,Cytochrome P450 2A13,,,"20 min, pH 7.4",15 to 80 µM
O=c1c2ccccc2[nH]c(=S)n1-c1ccccc1,"Phospholipase A2, membrane associated (Homo sapiens, UniProt P14555)","enzyme activity, inhibitor, colorimetric",,,104 ± 8.34 µM
O=[N+]([O-])c1cc(N2[C@@H]3CC[C@H]2COC3)ccc1NCc1ccc(CN2C[C@H](O)[C@@H](O)[C@H](O)[C@H]2CO)cc1,"Ganab (Mus musculus, UniProt Q8BHN3)","enzyme activity, inhibitor",,added: 4-methylumbelliferyl substrate,< 0.001 µM
C#CCNC(=O)c1ccc(S(=O)(=O)N[C@@H](CCCCNC(=O)c2cc(OS(=O)(=O)F)cc(C(=O)O)c2)C(=O)N[C@@H](Cc2c[nH]c3ccccc23)C(=O)NC2CCC2)cc1,"NAD-dependent protein deacylase sirtuin-5, mitochondrial (SIRT5, Homo sapiens, UniProt Q9NXA8)","inhibitor, fluorogenic",,"4 h preincubation, His-tagged enzyme 150 nM, added: NAD+ 500 µM",30.8 ± 47.8 µM
COc1cc(Nc2ncc(F)c(Nc3ccc4c(n3)NC(=O)C(C)(C)O4)n2)cc(OC)c1OC,CXCR1/CXCR2 (non-selective),,,,> 10 µM
O=C1CSC(c2cccc(F)c2)N1c1cccc(S(=O)(=O)Nc2nccs2)c1 (stereo not drawn),gag-pol reverse transcriptase,,,,> 4 µM
CO[C@H]1C[C@H](O[C@@H]2/C(C)=C/C[C@@H]3C[C@@H](C[C@]4(CC[C@H](C)[C@@H](C5CCCCC5)O4)O3)OC(=O)[C@@H]3C=C(C)/C(=N/O)[C@H]4OC/C(=C\C=C\[C@@H]2C)[C@]43O)O[C@@H](C)[C@@H]1O,"Nuclear receptor subfamily 1 group I member 3 (Homo sapiens, UniProt Q14994)","receptor activity, inhibitor",cells,,29 ± 17 µM
C/C1=C/C(=O)O[C@@H]2C[C@@H](CC[C@H](C)/C=C\C=C\CC1)O[C@@](O)([C@@H]1CSC(=O)N1CO)C2,"Actin, alpha skeletal muscle, pyrene-labeled (ACTA1, Oryctolagus cuniculus, UniProt P68135)","actin polymerization, pyrene actin",,,0.21 ± 0.054 µM
C#Cc1ccc2ccc3cccc4ccc1c2c34,Cytochrome P450 2A13,"enzyme activity, inhibitor",,"20 min, pH 7.4",> 100 µM
O=C(O)c1cc(-c2ccc([C@H]3C[C@H]4C[C@@H]3CN4)cc2)c2ccc(-c3ccc(C(F)(F)F)cc3)cc2c1 (racemic),"P2Y purinoceptor 14 (P2RY14, Homo sapiens, UniProt Q15391)","antagonist, flow cytometry",CHO expressing target,added: fluorescent antagonist 20 nM,0.0059 ± 0.0007 µM
CCOC(=O)[C@H]1Cc2c(cc([N+](=O)[O-])cc2[N+](=O)[O-])[C@@H](O)[C@@]12C(=O)Nc1cc(Cl)ccc12,"E3 ubiquitin-protein ligase Mdm2 (MDM2, Homo sapiens, UniProt Q00987)",,,,0.79 ± 0.09 µM
CC[C@H](C)[C@H](NC(=O)[C@H](CCC(=O)O)NC(=O)[C@H](CC(C)C)NC(=O)[C@H](CC(C)C)NC(=O)[C@H](CCC(N)=O)NC(=O)[C@H](C)NC(=O)[C@H](CCCCN)NC(=O)[C@H](CC(=O)O)NC(=O)[C@@H](N)CC(C)C)C(=O)O,Uncharacterized protein,"peptide binding, competitor, competitive radioligand binding",purified horse MHC class I,pH 7,0.059 µM
O=C1CSC(c2c(Cl)cccc2Cl)N1c1cccc(S(=O)(=O)Nc2nccs2)c1 (stereo not drawn),gag-pol reverse transcriptase,,,,> 4 µM
CC(C)C[C@H](NC(=O)CNC(=O)[C@@H](NC(=O)[C@H](Cc1c[nH]cn1)NC(=O)CNC(=O)[C@H](CC(N)=O)NC(=O)[C@H](Cc1ccc(O)cc1)NC(=O)[C@H](CC(=O)O)NC(=O)CN)C(C)C)C(=O)O,Uncharacterized protein,"peptide binding, competitor, competitive radioligand binding",purified horse MHC class I,pH 7,0.0015 µM
C[C@H]1CN(c2n[nH]c3nc(N[C@H]4CC[C@H](NS(=O)(=O)CCC(F)(F)F)CC4)ncc23)CCO1,"Cytoplasmic dynein 1 heavy chain 1 (DYNC1H1, Homo sapiens, UniProt Q14204)",biochemical,,,≥ 20 µM

# Excerpt of the above:
SMILES,target,test,test system,setting,IC50
CO[C@H]1C[C@H](O[C@@H]2/C(C)=C/C[C@@H]3C[C@@H](C[C@]4(CC[C@H](C)[C@@H](C5CCCCC5)O4)O3)OC(=O)[C@@H]3C=C(C)/C(=N/O)[C@H]4OC/C(=C\C=C\[C@@H]2C)[C@]43O)O[C@@H](C)[C@@H]1O,"Nuclear receptor subfamily 1 group I member 3 (Homo sapiens, UniProt Q14994)","receptor activity, inhibitor",cells,,29 ± 17 µM
C/C1=C/C(=O)O[C@@H]2C[C@@H](CC[C@H](C)/C=C\C=C\CC1)O[C@@](O)([C@@H]1CSC(=O)N1CO)C2,"Actin, alpha skeletal muscle, pyrene-labeled (ACTA1, Oryctolagus cuniculus, UniProt P68135)","actin polymerization, pyrene actin",,,0.21 ± 0.054 µM
